Experimental data from different studies.
Each line is one published result; not all experiments were run side by side. “And” joins repeats or separate records; there may be more than shown. ± marks the error that the study gave.

Structure (SMILES) | test | system | conditions | measurement | value
COCCCOc1cc2c(cc1OC)-c1cc(=O)c(C(=O)O)cn1[C@H](C(C)C)C2 |  | CD-1 mice, spinal cord | oral, 10 mg/kg | tissue concentration | > 500 ng/g and < 1000 ng/g
NC/C(=C\F)COc1cccc(Cn2c(=S)[nH]c(=O)c3[nH]cnc32)c1 |  | C57BL/6J mice, heart | oral, 15 mg/kg single, 6 h | tissue concentration | 65 ng/mL
C[C@H](NC(=O)[C@H](CCC(N)=O)NC(=O)[C@H](C)NC(=O)[C@H](CCCNC(=N)N)NC(=O)[C@H](CCC(N)=O)NC(=O)[C@H](C)NC(=O)[C@H](CCCNC(=N)N)NC(=O)[C@H](CCC(N)=O)NC(=O)[C@H](C)NC(=O)[C@H](CCC(N)=O)NC(=O)[C@H](CCCNC(=N)N)NC(=O)[C@H](C)NC(=O)[C@H](CCC(N)=O)NC(=O)[C@H](CCCNC(=N)N)NC(=O)[C@H](C)NC(=O)[C@H](CCC(N)=O)NC(=O)[C@H](C)NC(=O)[C@H](CCCNC(=N)N)NC(=O)[C@H](CCC(N)=O)NC(=O)[C@H](C)NC(=O)[C@H](CCCNC(=N)N)NC(=O)[C@H](CO)NC(=O)[C@H](Cc1ccc(O)c(I)c1)NC(=O)CNC(=O)CNC(=O)CN)C(=O)N[C@@H](CCCNC(=N)N)C(=O)N[C@@H](CCC(N)=O)C(=O)N[C@@H](C)C(=O)N[C@@H](CCCNC(=N)N)C(=O)N[C@@H](CCC(N)=O)C(=O)O [iodine-125 labelled] |  | H2/IL-6 transgenic BALB/c mice, both sexes, upper intestine | intravenous, 4 h | tissue uptake | 8.3 %ID/g
O=C[C@H]([18F])[C@@H](O)[C@H](O)[C@H](O)CO |  | Kunming mice, turpentine inflammation, blood | intravenous, 0.74 MBq, 60 min | tissue uptake | 1.02 ± 0.15 %ID/g
OCc1nc2ccc(NCc3ccc(C(F)(F)F)cc3)cc2[nH]1 |  | Balb/c mice, male, heart | intravenous, 1 mg/kg, 48 h | tissue concentration | not detected
N=C(N)NCCC[C@H](NCC(=O)[C@@H](O)[C@H](O)[C@H](O)CO)C(=O)O | UPLC-MS/MS | C57BL/6J mice, cerebellum | intraperitoneal, dose not given, 15 min | tissue concentration | 6 ± 2 pmol/mg tissue
CC(C)C[C@H](NC(=O)[C@@H]1COCCCCCC(=O)N2C[C@H](F)C[C@H]2C(=O)N1)C(=O)[C@@]1(C)CO1 |  | BALB/c mice, lung | intravenous bolus, 40 mg/kg, 2 h | tissue concentration | not detected
CC(C)NCCCC[C@@H]1NC(=O)[C@H](Cc2ccc(O)cc2)NC(=O)[C@H](Cc2ccccc2)NC(=O)CC[C@H](C(=O)N[C@@H](CCCCNC(C)C)C(=O)N[C@@H](CCCCNC(=O)[C@H](CCC(=O)O)NC(=O)[C@H](CCC(=O)O)NC(=O)[C@H](CCC(=O)O)NC(=O)CN2CCN(CC(=O)O)CCN(CC(=O)O)CCN(CC(=O)O)CC2)C(N)=O)NC(=O)CNC(=O)[C@H](Cc2ccc3ccccc3c2)NC(=O)[C@@H](CCCNC(=N)N)NC1=O [gallium-68 labelled] | ex vivo biodistribution | male mice, PC-3 xenograft, testes | intravenous, 1 h post-injection | tissue uptake | 0.19 %ID/g
